Published values pooled from the literature.
Protocols differ between the studies behind these lines. Several values in a cell are separate wells, animals, samples, runs or records. ± gives the spread as reported.

COc1ccc(-n2nc(C(C)=O)s/c2=N\N=C(/C)c2ccc(NC(C)=O)cc2)cc1
viability (WI-38; 0.625 µM, 24 (unit not given)): 3.48%

CC[C@H](C)[C@H](NC(=O)[C@H](CC(C)C)NC(=O)[C@H](CCCNC(=N)N)NC(=O)[C@@H](N)CCCNC(=N)N)C(=O)N[C@@H](CCCNC(=N)N)C(=O)N[C@@H](CCCCN)C(=O)N[C@@H](CC(C)C)C(=O)N[C@@H](CCCCN)C(=O)NCC(=O)N[C@@H](CC(C)C)C(=O)N[C@@H](CCCCN)C(=O)N[C@@H](CCCCN)C(=O)N[C@@H](Cc1ccc(O)cc1)C(=O)N[C@@H](CC(C)C)C(=O)N[C@@H](Cc1ccc(O)cc1)C(=O)N[C@@H](Cc1ccccc1)C(=O)N[C@@H](CCCCN)C(=O)N[C@@H](CC(C)C)C(=O)N[C@@H](CCC(N)=O)C(=O)N[C@@H](CC(C)C)C(=O)N[C@@H](CC(C)C)C(=O)N[C@@H](CCCCN)C(=O)N[C@@H](CCCCN)C(N)=O
time to near-complete degradation (Chymotrypsinogen A (Bos taurus, UniProt P00766); substrate, HPLC; 150 µM, pH 7.4, 37 °C, added: chymotrypsin 0.1 µg/mL): 18 to 20 h

Nc1c(C(=O)Nc2ccon2)sc2nc(-c3ccccc3)cc(C(F)(F)F)c12
viability (MDA-MB-231; MTT; 100 µM, 72 h): 15 ± 3%

CN1CC[C@@H](c2c(O)cc(O)c3c(=O)cc(-c4ccc(C(F)(F)F)cc4Cl)oc23)[C@@H]1CO
patients with adverse event (refers to: Hypotension; relapsed AML; oral, 100 mg, grade 3-4, intermittent dosing): 0%

CN(C)CCCNc1nc(NC2CCN(Cc3ccccc3)CC2)c2ccccc2n1
cytotoxicity (MV4-11; 10 µM): 100%

COc1cc2c(Oc3ccc4[nH]c(C)cc4c3F)ccnc2cc1OCC1(N)CC1
grade 1 or 2 sinus tachycardia (paediatric recurrent refractory sarcoma; 8 mg): 0%

CC(=O)c1c(C)c2cnc(Nc3ccc(C4CCN(CCS(C)(=O)=O)CC4)cn3)nc2n(C2CCCC2)c1=O
patients with any TEAE (HR+/HER2- advanced breast cancer patients; oral, 25 mg): 100%

CCN(CC)C(=O)[C@@H]1C=C2c3cccc4[nH]cc(c34)C[C@H]2N(C)C1
AUC extrapolated (human; oral, 100 µg): 1.28% and 3.32% and 2.03% and 5.84% and 1.42% and 11.9% and 1.46%

C[C@]1(CO)Cc2ncn(-c3ccc(C#N)c(Cl)c3)c2C(=O)O1
Cmax (human, plasma; 80 mg, first dose fasted): 2740 nM

CN(CC(C)(C)C)N=O
revertant colonies per plate (Escherichia coli; mutagenicity, Ames plate incorporation; WP2 uvrA pKM101; 500 µg/plate, without S9, methanol): 147 ± 10

Cc1ncc(OC[C@@]2(c3cccc(F)c3)C[C@H]2C(=O)Nc2ccc(F)cn2)c(C)n1
Papp A to B (MDCK; 1 µM, 90 min, pH 6.5 apical, 7.4 basolateral): 45.6 ×10⁻⁶ cm/s and 38.6 ×10⁻⁶ cm/s

CNC(=O)c1c(N(C)N=O)ncn1C
revertant colonies per plate (Escherichia coli; plate incorporation; WP2uvrA pKM101, water; 5000 µg/plate, without S9): 133 ± 5

Cc1c(Cl)c(=O)oc2cc(OCCCC[Se]C#N)ccc12
embryonic lethality (Caenorhabditis elegans; N2 Bristol, NGM with E. coli OP50; 5 µM, 24 h): 1.69%

O=C1c2c(O)c(=O)ccn2N([C@@H]2c3ccccc3SCc3c2ccc(F)c3F)[C@@H]2COCCN12
plasma concentration (BALB/c mouse, plasma; oral, 1.5 mg/kg baloxavir marboxil every 12 h, 24 h): 2.31 ng/mL

CCC1(c2ccccc2)C(=O)NC(=O)NC1=O
induction (CYP2B6 human; enzyme activity, inducer; cryopreserved primary human hepatocytes; 1000 µM, 3 days, 0.1% DMSO; reference: negative control): 439 to 17800%

OC(CCN1CC=C(c2ccc(F)cc2)CC1)c1ccc(F)c2ccccc12 (stereo not drawn)
induction factor (Salmonella typhimurium; genotoxicity, SOS/umu test; TA1535/pSK1002; 0.002 mg/mL, 4 h, without S9, lower range): 0.8

CC(C)N(N=O)C(C)C
revertant colonies per plate (Escherichia coli; mutagenicity, Ames plate incorporation; WP2 uvrA pKM101; 5000 µg/plate, without S9, methanol): 138 ± 8

CO[C@H]1C[C@@H]2CC[C@@H](C)[C@@](O)(O2)C(=O)C(=O)N2CCCC[C@H]2C(=O)O[C@H]([C@H](C)C[C@@H]2CC[C@@H](OC(=O)NCCOCCOCCOCCOCCOCCOCCOCCOCCC(=O)N3CCc4cc(Cn5nc(-c6ccc7oc(N)nc7c6)c6c(N)ncnc65)ccc4C3)[C@H](OC)C2)C[C@@H](O)[C@H](C)/C=C(\C)[C@@H](O)[C@@H](OC)C(=O)[C@H](C)C[C@H](C)/C=C/C=C/C=C/1C
dysgeusia incidence (patients with advanced solid tumours; intravenous, 12 mg weekly, any grade): 25%

O=c1ccc2ccccc2o1
chance response (NHEK; oxygen consumption rate, Seahorse; concentration not given, 24 h): 52.9%

Cc1cc(C(=O)NC(C)(C)COc2cccc3c2C(N)=NS(=O)(=O)N3)cc(C)n1
revertant ratio (Escherichia coli; Ames test, confirmatory; WP2 uvrA; 5000 µg/plate; reference: solvent control): 0.7

CC(C)CC(=O)OC[C@H]1O[C@@](C#N)(c2ccc3c(N)ncnn23)[C@H](O)[C@@H]1O
efflux ratio (Caco-2; 90 µM, 2 h): 2.62

Excerpt of the above:
OC(CCN1CC=C(c2ccc(F)cc2)CC1)c1ccc(F)c2ccccc12 (stereo not drawn)
induction factor (Salmonella typhimurium; genotoxicity, SOS/umu test; TA1535/pSK1002; 0.002 mg/mL, 4 h, without S9, lower range): 0.8
